{"data": "Measurements from different studies", "note": "A part holds a random share of what one study measured. “And” joins repeats or separate records; there may be more than shown.", "UniProt P33981, sequence (whole entry, looked up)": "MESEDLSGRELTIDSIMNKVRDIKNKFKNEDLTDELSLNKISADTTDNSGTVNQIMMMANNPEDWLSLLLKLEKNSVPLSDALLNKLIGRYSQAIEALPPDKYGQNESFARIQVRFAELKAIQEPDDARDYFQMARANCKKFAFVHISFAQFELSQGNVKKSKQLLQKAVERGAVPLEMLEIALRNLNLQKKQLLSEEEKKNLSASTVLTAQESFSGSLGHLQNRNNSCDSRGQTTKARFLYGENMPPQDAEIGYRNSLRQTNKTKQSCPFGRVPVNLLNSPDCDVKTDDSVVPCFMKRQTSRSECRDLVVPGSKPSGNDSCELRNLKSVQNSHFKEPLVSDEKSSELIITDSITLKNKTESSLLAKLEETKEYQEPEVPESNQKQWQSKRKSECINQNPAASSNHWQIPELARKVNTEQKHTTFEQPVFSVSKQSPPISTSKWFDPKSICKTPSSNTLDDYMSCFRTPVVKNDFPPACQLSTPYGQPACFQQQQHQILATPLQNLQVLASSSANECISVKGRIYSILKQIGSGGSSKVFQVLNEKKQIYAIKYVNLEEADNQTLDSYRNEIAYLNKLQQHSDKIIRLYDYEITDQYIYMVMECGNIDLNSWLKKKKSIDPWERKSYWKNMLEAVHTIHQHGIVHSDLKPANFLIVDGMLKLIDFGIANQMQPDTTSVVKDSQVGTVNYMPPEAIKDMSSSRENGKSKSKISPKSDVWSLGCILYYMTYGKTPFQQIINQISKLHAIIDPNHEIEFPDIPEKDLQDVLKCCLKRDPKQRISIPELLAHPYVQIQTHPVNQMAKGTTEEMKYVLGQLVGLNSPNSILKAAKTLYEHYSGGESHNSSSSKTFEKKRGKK", "UniProt Q86UX6, sequence (whole entry, looked up)": "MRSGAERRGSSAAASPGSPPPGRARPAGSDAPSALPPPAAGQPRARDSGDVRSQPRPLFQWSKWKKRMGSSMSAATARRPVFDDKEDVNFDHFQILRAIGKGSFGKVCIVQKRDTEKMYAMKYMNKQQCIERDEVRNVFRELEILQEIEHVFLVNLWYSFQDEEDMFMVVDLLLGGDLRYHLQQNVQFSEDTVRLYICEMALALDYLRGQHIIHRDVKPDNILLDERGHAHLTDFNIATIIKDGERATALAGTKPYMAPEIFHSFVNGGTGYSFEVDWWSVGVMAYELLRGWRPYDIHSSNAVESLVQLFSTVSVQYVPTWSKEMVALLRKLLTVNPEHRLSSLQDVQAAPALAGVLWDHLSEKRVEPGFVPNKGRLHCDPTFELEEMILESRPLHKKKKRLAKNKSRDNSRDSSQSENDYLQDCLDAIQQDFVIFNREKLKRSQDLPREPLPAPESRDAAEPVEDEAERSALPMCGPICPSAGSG", "UniProt P54756, sequence (whole entry, looked up)": "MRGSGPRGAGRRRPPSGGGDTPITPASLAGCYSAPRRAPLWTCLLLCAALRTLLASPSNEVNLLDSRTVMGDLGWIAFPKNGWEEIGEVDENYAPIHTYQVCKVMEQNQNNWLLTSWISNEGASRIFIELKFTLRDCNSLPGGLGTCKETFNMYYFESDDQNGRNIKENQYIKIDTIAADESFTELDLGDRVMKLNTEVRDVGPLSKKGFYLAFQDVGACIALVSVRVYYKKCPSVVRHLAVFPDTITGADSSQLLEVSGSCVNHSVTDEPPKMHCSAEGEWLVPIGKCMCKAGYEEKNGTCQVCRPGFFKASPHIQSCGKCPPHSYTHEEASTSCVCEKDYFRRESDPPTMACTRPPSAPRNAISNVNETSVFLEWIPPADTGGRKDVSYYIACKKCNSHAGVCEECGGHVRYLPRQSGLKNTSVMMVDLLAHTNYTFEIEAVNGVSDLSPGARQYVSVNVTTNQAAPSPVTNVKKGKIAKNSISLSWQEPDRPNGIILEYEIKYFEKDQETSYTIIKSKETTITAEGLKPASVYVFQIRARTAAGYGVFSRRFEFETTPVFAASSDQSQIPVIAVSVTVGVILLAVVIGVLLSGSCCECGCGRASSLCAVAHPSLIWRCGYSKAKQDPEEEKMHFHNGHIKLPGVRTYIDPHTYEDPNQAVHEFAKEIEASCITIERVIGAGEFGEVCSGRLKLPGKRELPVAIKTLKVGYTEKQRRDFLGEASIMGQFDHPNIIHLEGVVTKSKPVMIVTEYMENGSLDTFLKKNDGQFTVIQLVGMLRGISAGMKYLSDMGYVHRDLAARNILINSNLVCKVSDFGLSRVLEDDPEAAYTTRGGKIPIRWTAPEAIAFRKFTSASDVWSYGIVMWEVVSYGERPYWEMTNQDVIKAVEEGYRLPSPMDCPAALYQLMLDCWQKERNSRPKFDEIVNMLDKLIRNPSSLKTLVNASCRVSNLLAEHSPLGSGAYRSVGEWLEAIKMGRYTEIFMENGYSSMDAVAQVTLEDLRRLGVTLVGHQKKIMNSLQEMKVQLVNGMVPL", "UniProt P48729, sequence (whole entry, looked up)": "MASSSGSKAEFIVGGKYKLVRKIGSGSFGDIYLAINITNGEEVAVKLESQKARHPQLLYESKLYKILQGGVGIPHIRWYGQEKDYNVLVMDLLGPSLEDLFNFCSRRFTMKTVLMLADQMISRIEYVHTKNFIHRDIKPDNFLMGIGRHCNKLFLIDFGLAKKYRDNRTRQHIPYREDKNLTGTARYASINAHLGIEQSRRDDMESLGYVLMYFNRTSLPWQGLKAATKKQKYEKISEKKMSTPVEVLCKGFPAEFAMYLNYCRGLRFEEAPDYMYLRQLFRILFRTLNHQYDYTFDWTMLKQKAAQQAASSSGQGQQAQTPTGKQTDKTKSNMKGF", "UniProt P31751, sequence (whole entry, looked up)": "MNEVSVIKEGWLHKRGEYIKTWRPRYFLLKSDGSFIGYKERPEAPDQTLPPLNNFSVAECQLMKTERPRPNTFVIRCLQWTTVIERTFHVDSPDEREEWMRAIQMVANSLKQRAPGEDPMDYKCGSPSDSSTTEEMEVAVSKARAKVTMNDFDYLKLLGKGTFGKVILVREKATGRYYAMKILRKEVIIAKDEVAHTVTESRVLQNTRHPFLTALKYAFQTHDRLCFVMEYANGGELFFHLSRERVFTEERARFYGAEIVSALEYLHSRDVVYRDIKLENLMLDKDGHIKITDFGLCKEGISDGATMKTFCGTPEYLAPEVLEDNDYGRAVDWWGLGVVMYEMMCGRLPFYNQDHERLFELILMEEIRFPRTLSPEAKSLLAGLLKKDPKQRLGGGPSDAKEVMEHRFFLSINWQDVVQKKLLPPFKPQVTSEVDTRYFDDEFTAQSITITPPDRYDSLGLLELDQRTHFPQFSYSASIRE", "UniProt P51957, sequence (whole entry, looked up)": "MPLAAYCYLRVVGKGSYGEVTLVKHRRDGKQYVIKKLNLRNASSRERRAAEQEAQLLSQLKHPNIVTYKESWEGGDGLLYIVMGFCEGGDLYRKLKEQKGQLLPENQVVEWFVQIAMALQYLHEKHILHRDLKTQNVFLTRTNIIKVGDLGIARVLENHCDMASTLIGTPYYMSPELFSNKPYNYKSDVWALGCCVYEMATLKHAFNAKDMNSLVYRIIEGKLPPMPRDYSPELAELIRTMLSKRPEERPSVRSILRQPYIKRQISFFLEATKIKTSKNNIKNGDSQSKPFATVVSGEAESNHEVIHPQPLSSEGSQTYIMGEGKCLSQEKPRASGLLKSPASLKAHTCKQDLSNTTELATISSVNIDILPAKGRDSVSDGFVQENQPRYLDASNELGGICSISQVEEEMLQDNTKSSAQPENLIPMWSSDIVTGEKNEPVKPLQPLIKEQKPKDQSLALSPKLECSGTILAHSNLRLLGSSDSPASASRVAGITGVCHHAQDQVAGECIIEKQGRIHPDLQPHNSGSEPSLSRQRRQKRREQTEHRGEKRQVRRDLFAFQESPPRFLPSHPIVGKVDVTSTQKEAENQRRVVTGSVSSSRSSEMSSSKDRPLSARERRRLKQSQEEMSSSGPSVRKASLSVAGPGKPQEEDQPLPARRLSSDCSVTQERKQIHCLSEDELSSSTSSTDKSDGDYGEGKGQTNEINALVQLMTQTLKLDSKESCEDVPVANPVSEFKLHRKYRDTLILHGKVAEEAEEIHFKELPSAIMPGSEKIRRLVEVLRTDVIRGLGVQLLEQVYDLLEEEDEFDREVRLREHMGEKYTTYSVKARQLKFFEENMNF", "UniProt P53671, sequence (whole entry, looked up)": "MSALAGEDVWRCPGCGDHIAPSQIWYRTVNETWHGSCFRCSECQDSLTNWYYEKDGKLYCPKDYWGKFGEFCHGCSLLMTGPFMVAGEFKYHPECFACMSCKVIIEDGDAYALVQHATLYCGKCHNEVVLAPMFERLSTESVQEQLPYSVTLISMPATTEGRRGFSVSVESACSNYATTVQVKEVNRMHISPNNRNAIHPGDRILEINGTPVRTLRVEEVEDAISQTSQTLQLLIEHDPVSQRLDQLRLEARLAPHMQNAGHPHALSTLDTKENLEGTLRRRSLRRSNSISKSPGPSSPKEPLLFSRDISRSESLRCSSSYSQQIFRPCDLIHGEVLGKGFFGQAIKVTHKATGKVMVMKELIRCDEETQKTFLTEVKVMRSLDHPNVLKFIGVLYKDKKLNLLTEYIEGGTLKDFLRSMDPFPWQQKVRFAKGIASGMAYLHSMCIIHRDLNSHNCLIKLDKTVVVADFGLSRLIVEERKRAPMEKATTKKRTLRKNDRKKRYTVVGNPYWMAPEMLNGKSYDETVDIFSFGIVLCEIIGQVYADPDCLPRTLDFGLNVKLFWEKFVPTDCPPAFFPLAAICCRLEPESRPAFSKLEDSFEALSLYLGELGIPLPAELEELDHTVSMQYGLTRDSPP", "UniProt O15264, sequence (whole entry, looked up)": "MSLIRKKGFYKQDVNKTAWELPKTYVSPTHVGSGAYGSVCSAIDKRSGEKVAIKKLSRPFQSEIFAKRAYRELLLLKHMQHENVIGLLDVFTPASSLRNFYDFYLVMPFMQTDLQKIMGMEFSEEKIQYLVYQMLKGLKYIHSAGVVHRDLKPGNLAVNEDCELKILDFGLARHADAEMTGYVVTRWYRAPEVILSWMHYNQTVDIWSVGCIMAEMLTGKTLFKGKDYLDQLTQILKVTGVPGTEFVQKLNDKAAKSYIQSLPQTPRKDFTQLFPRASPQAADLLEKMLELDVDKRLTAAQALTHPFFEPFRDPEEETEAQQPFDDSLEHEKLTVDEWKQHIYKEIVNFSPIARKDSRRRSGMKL"}
{"data": "Set 1", "SMILES": "CC(=O)c1c(NS(C)(=O)=O)c2cc(-c3ccc(Cl)cc3)c(-c3ccc(Cl)cc3Cl)nc2n(C)c1=O", "observed": "cell-free assay", "method": "competition with immobilised ligand", "tested at": "1 µM"}
{"target": "CDK11A (Homo sapiens, UniProt Q9UQ88)", "remaining binding [%]": 98}
{"target": "EGFR (Homo sapiens, UniProt P00533, del746-750)", "remaining binding [%]": 100}
{"target": "AKT2 (Homo sapiens, UniProt P31751)", "remaining binding [%]": 100}
{"target": "LIM domain kinase 2 (LIMK2, Homo sapiens, UniProt P53671)", "remaining binding [%]": 91}
{"target": "PLK1 (Homo sapiens, UniProt P53350)", "remaining binding [%]": 87}
{"target": "FGFR1 (Homo sapiens, UniProt P11362)", "remaining binding [%]": 97}
{"target": "CSNK1D (Homo sapiens, UniProt P48730)", "remaining binding [%]": 100}
{"target": "SIK2 (Homo sapiens, UniProt Q9H0K1)", "remaining binding [%]": 100}
{"target": "MET (Homo sapiens, UniProt P08581, Y1235D)", "remaining binding [%]": 95}
{"target": "WNK3 (Homo sapiens, UniProt Q9BYP7)", "remaining binding [%]": 80}
{"target": "STK36 (Homo sapiens, UniProt Q9NRP7)", "remaining binding [%]": 100}
{"target": "PRKD3 (Homo sapiens, UniProt O94806)", "remaining binding [%]": 100}
{"target": "TTK (Homo sapiens, UniProt P33981)", "remaining binding [%]": 100}
{"target": "CHUK (Homo sapiens, UniProt O15111)", "remaining binding [%]": 100}
{"target": "BMPR2 (Homo sapiens, UniProt Q13873)", "remaining binding [%]": 100}
{"target": "MYLK2 (Homo sapiens, UniProt Q9H1R3)", "remaining binding [%]": 98}
{"target": "MAP3K1 (Homo sapiens, UniProt Q13233)", "remaining binding [%]": 94}
{"target": "MAP3K19 (Homo sapiens, UniProt Q56UN5)", "remaining binding [%]": 85}
{"target": "STK32C (Homo sapiens, UniProt Q86UX6)", "remaining binding [%]": 100}
{"target": "Non-receptor tyrosine-protein kinase TYK2, JH1 (TYK2, Homo sapiens, UniProt P29597)", "remaining binding [%]": 94}
{"target": "EGFR (Homo sapiens, UniProt P00533, L858R)", "remaining binding [%]": 98}
{"target": "STK10 (Homo sapiens, UniProt O94804)", "remaining binding [%]": 100}
{"target": "MAP3K15 (Homo sapiens, UniProt Q6ZN16)", "remaining binding [%]": 91}
{"target": "Ribosomal protein S6 kinase alpha-6, C-terminal kinase domain (RPS6KA6, Homo sapiens, UniProt Q9UK32)", "remaining binding [%]": 90}
{"target": "CSNK1A1L (Homo sapiens, UniProt Q8N752)", "remaining binding [%]": 100}
{"data": "Set 2", "SMILES": "Cn1cnc2cc3c(Nc4cccc(Br)c4)ncnc3cc21", "observed": "enzyme activity", "action": "inhibitor", "tested at": "0.5 µM", "relative to": "control"}
{"target": "NEK4 (Homo sapiens, UniProt P51957)", "remaining activity": "96.8%"}
{"target": "PRKCI (Homo sapiens, UniProt P41743)", "remaining activity": "100%"}
{"target": "MAP3K10 (Homo sapiens, UniProt Q02779)", "remaining activity": "94%"}
{"target": "MAPK12 (Homo sapiens, UniProt P53778)", "remaining activity": "92%"}
{"target": "MKNK2 (Homo sapiens, UniProt Q9HBH9)", "remaining activity": "32.2%"}
{"target": "PRKG1 (Homo sapiens, UniProt Q13976)", "remaining activity": "97.8%"}
{"target": "CSNK1A1 (Homo sapiens, UniProt P48729)", "remaining activity": "102%"}
{"target": "CSNK2A1 (Homo sapiens, UniProt P68400)", "remaining activity": "99%"}
{"target": "KIT (Homo sapiens, UniProt P10721)", "remaining activity": "78.6%"}
{"target": "LRRK2 (Homo sapiens, UniProt Q5S007)", "remaining activity": "68.2%"}
{"target": "WNK2 (Homo sapiens, UniProt Q9Y3S1)", "remaining activity": "89.7%"}
{"target": "MAPK13 (Homo sapiens, UniProt O15264)", "remaining activity": "101%"}
{"target": "IRAK4 (Homo sapiens, UniProt Q9NWZ3)", "remaining activity": "89.1%"}
{"target": "PRKCD (Homo sapiens, UniProt Q05655)", "remaining activity": "91.8%"}
{"target": "CHEK1 (Homo sapiens, UniProt O14757)", "remaining activity": "113%"}
{"target": "BTK (Homo sapiens, UniProt Q06187)", "remaining activity": "86.8%"}
{"target": "AKT3 (Homo sapiens, UniProt Q9Y243)", "remaining activity": "89.5%"}
{"target": "EPHA5 (Homo sapiens, UniProt P54756)", "remaining activity": "71.5%"}
{"target": "LYN (Homo sapiens, UniProt P07948)", "remaining activity": "52.4%"}
{"target": "Cyclin-dependent kinase 9, with cyclin T1 (CDK9, Homo sapiens, UniProt P50750)", "remaining activity": "88.5%"}
{"target": "MAP2K6 (Homo sapiens, UniProt P52564)", "remaining activity": "104%"}
{"target": "PLK2 (Homo sapiens, UniProt Q9NYY3)", "remaining activity": "101%"}
{"target": "MAP4K2 (Homo sapiens, UniProt Q12851)", "remaining activity": "90.4%"}
{"data": "Set 3", "Compound": "CC(C)n1cnc(-c2ccc(F)cc2)c1-c1ncc(C(=O)Nc2ccc(N3CCN(C)CC3)cc2)[nH]1", "method": "phase 2a trial", "species": "idiopathic pulmonary fibrosis patients"}
{"assay": "item: hepatic enzyme abnormal", "setting": "60 mg once daily, grade 2", "adverse event incidence [%]": 0}
{"assay": "item: synovitis", "setting": "dose not given, grade 3, all arms pooled", "adverse event incidence [%]": 0}
{"assay": "item: QRS axis abnormal", "setting": "30 mg once daily, grade 5", "adverse event incidence [%]": 0}
{"assay": "item: liver injury", "setting": "30 mg once daily, grade 5", "adverse event incidence [%]": 0}
{"assay": "item: liver injury", "setting": "dose not given, grade 1, all arms pooled", "adverse event incidence [%]": 0}
{"assay": "item: hepatic enzyme abnormal", "setting": "dose not given, grade 3, all arms pooled", "adverse event incidence [%]": 0}
{"assay": "item: general and administration site disorders", "setting": "30 mg once daily, grade 5", "adverse event incidence [%]": 0}
{"assay": "item: carotid intima-media thickening", "setting": "dose not given, grade 3, all arms pooled", "adverse event incidence [%]": 0}
{"assay": "item: ECG ST segment abnormal", "setting": "30 mg once daily, grade 5", "adverse event incidence [%]": 0}
{"assay": "item: gingivitis", "setting": "30 mg once daily, grade 3", "adverse event incidence [%]": 0}
{"assay": "item: ECG ST segment abnormal", "setting": "dose not given, grade 4, all arms pooled", "adverse event incidence [%]": 0}
{"assay": "item: appendicitis", "setting": "dose not given, grade 1, all arms pooled", "adverse event incidence [%]": 0}
{"data": "Set 4", "cell line": "mouse MPNST tumor cells", "method": "high-content nuclear imaging", "item": "cell number", "tested at": "10 µM", "time": "12 h", "notes": "mean of 2 replicates", "relative to": "plate mean", "direction": "higher = more cells"}
{"Structure (SMILES)": "O=S(=O)(NCCCCCCc1ccccc1)c1cccc2c(Cl)cccc12", "nuclei count": "-0.44 z-score"}
{"Structure (SMILES)": "CCCCOc1nc(N)c2[nH]c(=O)n(Cc3cccc(CC(=O)OC)c3)c2n1", "nuclei count": "-0.0203 z-score"}
{"Structure (SMILES)": "C[C@]12CCC(=O)C=C1C=C[C@@H]1[C@@H]2CC[C@@]2(C)[C@H]1CC[C@@]21CCC(=O)O1", "nuclei count": "1.17 z-score and 3.38 z-score"}
{"Structure (SMILES)": "CCCC[S+]([O-])c1sc2nc(-c3cccs3)cc(-c3ccccc3)c2c1N (stereo not drawn)", "nuclei count": "3.05 z-score"}
{"Structure (SMILES)": "O=C(CCCN1CC=C(n2c(=O)[nH]c3ccccc32)CC1)c1ccc(F)cc1", "nuclei count": "1.75 z-score"}
{"Structure (SMILES)": "CCCN(CCC)S(=O)(=O)c1ccc(C(=O)O)cc1", "nuclei count": "0.869 z-score and 1.7 z-score and 0.123 z-score"}
{"Structure (SMILES)": "Cc1cc(C)c(N)c(C#Cc2cccc(F)c2)n1", "nuclei count": "6.74 z-score"}
{"Structure (SMILES)": "CCCS(=O)(=O)c1nc(NC2CC2)cc(-c2ccc3c(ccn3C3CC(C)(C)NC(C)(C)C3)c2)n1", "nuclei count": "-5.99 z-score"}
{"Structure (SMILES)": "COc1cc(SC)ccc1C(=O)N1CCC(Cc2ccccc2)CC1", "nuclei count": "2.05 z-score"}
{"note": "Excerpt of the above (set 3):"}
{"assay": "item: hepatic enzyme abnormal", "setting": "60 mg once daily, grade 2", "adverse event incidence [%]": 0}
{"assay": "item: synovitis", "setting": "dose not given, grade 3, all arms pooled", "adverse event incidence [%]": 0}
{"assay": "item: QRS axis abnormal", "setting": "30 mg once daily, grade 5", "adverse event incidence [%]": 0}
{"assay": "item: liver injury", "setting": "30 mg once daily, grade 5", "adverse event incidence [%]": 0}
{"assay": "item: liver injury", "setting": "dose not given, grade 1, all arms pooled", "adverse event incidence [%]": 0}
{"assay": "item: hepatic enzyme abnormal", "setting": "dose not given, grade 3, all arms pooled", "adverse event incidence [%]": 0}
{"assay": "item: general and administration site disorders", "setting": "30 mg once daily, grade 5", "adverse event incidence [%]": 0}
{"assay": "item: carotid intima-media thickening", "setting": "dose not given, grade 3, all arms pooled", "adverse event incidence [%]": 0}
